Published values pooled from the literature.
Lines come from different studies, so protocols differ. ± gives the spread as reported.
YAP1 full length assumed: YAP1 full length assumed (Saccharomyces cerevisiae, UniProt P19880)
UniProt P19880, sequence (whole entry, looked up): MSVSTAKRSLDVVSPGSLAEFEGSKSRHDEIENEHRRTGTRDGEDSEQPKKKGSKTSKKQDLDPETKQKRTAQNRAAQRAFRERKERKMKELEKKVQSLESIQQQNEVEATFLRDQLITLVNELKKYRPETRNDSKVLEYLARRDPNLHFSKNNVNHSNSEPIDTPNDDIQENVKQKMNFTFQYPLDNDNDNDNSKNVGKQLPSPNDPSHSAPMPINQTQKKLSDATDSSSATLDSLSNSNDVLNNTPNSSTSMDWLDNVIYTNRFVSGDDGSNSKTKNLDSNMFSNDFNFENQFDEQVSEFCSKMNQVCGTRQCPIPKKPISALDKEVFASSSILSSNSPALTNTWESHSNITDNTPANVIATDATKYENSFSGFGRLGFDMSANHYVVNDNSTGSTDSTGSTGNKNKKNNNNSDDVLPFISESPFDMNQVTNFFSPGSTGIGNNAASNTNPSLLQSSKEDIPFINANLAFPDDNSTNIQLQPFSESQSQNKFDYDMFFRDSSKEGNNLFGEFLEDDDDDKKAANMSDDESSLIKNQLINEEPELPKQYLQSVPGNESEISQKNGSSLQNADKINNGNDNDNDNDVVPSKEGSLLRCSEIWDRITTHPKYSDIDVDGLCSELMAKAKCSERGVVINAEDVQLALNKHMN
SPT15/TOA1/TOA2/SUA7 1-240; 1-286; 1-122; 1-345: SPT15/TOA1/TOA2/SUA7 1-240; 1-286; 1-122; 1-345 (Saccharomyces cerevisiae)
Fibroin-modulator-binding protein-1: Fibroin-modulator-binding protein-1 99-193 (Bombyx mori, UniProt Q5FBS0)
MGM101: MGM101 23-269 (Saccharomyces cerevisiae, UniProt P32787)
UniProt P32787, sequence (whole entry, looked up): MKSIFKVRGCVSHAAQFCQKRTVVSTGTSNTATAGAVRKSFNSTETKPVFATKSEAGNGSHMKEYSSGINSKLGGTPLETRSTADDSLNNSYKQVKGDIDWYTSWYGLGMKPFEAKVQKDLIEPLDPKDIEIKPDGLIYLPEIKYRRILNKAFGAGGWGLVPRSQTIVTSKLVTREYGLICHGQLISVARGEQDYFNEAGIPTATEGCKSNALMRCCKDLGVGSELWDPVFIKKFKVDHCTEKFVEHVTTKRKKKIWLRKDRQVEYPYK
T1: KU70/KU80 KU70 1-592; KU80 1-680 (Arabidopsis thaliana); chain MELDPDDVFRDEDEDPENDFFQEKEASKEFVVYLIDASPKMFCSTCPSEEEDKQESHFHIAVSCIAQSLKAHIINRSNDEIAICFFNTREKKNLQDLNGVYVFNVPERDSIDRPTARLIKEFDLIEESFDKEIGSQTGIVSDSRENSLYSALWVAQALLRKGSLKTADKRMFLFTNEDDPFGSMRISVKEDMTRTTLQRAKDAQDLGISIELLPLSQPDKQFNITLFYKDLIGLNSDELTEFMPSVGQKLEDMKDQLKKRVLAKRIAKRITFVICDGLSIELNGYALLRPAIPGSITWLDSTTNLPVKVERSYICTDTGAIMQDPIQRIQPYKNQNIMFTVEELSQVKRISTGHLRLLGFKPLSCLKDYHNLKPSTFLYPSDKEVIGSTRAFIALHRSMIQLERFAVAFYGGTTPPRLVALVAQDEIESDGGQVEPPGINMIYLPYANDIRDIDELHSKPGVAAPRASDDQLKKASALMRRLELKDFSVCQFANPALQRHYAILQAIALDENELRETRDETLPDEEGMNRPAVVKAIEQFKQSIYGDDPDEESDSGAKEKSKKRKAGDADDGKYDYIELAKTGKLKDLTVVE; chain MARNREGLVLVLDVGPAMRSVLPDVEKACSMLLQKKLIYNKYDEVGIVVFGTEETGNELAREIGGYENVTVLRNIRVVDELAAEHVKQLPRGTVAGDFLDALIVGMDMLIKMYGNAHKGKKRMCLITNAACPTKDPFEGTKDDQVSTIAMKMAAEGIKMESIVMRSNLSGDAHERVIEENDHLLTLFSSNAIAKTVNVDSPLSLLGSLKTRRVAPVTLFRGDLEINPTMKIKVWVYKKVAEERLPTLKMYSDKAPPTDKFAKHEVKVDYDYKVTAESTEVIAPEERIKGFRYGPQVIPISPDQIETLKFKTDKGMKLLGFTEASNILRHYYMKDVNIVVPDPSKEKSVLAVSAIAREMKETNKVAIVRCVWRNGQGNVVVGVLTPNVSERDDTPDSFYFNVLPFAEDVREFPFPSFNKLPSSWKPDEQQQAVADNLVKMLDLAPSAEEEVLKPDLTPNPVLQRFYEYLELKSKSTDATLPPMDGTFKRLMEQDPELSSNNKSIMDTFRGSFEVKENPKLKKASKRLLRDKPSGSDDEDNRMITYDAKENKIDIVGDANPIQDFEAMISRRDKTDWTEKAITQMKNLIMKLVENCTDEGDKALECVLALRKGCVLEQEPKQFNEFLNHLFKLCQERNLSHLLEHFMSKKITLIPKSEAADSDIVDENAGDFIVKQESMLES
UniProt Q8N884, sequence (whole entry, unmodified, looked up): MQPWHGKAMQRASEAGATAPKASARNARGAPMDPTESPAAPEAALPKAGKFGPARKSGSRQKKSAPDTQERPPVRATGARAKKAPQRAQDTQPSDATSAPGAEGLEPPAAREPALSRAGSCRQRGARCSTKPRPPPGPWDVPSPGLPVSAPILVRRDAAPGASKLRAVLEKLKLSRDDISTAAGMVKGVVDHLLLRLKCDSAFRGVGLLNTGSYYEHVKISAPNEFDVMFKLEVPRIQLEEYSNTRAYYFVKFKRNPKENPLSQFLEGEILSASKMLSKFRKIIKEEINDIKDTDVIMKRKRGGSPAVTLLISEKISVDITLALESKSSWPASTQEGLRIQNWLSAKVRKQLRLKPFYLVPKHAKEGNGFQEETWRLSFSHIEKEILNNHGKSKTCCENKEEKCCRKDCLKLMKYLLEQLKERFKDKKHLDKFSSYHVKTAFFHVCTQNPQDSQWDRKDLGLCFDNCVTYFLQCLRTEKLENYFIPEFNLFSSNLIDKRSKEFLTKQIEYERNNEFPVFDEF
UniProt O67035, sequence (whole entry, looked up): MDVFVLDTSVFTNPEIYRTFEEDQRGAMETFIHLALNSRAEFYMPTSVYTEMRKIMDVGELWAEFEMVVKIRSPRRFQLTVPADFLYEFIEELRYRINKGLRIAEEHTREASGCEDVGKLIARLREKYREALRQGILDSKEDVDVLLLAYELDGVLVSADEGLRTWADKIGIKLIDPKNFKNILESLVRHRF
UniProt Q01844, sequence (whole entry, looked up): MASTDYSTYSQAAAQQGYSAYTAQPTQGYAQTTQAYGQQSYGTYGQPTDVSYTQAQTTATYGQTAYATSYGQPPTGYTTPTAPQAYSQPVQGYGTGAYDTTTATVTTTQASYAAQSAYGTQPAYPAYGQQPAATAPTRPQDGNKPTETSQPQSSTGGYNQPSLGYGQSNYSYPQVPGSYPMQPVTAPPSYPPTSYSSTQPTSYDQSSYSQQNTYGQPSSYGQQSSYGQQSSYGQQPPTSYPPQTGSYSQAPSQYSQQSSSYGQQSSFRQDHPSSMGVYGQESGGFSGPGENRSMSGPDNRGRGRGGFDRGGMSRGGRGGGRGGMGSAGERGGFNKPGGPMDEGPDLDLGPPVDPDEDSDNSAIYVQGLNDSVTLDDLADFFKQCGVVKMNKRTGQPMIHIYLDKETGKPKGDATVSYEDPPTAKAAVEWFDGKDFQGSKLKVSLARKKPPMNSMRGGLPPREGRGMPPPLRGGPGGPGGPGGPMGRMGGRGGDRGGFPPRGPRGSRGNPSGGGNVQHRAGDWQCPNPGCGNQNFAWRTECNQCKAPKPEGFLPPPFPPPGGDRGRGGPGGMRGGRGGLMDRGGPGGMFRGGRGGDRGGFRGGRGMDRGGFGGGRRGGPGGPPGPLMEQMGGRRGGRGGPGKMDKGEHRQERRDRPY
UniProt P01185, sequence (whole entry, looked up): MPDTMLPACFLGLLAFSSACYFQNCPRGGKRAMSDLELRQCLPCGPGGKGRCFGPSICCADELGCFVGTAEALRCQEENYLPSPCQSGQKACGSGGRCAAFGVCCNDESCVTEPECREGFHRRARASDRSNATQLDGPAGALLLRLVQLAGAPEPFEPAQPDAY
UniProt P42568, sequence (whole entry, unmodified, looked up): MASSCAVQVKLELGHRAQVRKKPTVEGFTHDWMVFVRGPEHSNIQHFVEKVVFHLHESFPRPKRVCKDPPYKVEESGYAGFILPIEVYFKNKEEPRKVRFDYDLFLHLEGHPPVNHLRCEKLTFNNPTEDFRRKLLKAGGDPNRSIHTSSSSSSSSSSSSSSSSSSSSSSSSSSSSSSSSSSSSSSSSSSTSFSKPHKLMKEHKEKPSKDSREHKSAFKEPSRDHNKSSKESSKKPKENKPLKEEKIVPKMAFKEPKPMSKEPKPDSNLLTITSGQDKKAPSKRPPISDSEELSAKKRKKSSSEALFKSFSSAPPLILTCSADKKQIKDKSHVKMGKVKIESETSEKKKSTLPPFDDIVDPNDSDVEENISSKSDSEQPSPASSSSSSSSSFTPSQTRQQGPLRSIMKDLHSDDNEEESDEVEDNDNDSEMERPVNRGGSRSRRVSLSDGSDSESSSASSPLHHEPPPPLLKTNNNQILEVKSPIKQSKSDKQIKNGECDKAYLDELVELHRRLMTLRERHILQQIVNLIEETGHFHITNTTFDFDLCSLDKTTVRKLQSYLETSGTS
UniProt P0A7G6, sequence (whole entry, unmodified, looked up): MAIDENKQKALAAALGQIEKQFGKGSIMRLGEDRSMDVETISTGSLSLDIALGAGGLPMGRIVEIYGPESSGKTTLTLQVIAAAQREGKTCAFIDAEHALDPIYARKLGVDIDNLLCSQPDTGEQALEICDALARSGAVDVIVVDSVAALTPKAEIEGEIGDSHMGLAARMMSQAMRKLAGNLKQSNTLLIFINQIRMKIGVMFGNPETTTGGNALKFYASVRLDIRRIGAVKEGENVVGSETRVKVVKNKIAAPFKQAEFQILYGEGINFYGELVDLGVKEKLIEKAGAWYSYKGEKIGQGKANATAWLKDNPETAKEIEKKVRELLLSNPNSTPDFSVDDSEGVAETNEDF
UniProt P50548, sequence (whole entry, looked up): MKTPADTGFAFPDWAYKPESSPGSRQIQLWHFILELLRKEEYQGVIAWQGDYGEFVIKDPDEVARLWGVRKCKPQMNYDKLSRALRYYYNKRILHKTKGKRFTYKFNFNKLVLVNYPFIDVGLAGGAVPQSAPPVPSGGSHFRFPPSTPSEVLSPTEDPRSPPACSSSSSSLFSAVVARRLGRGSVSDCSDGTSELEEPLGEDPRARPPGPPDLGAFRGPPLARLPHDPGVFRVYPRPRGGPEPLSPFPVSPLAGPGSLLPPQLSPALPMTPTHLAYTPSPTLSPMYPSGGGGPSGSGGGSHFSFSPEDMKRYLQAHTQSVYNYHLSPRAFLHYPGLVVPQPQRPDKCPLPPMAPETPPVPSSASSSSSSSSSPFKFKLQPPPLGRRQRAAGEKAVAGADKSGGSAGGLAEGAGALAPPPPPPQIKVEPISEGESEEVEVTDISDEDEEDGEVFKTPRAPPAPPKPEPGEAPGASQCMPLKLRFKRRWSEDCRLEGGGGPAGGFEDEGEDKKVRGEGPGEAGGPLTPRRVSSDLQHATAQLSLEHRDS
UniProt Q9NUX5, sequence (whole entry, looked up): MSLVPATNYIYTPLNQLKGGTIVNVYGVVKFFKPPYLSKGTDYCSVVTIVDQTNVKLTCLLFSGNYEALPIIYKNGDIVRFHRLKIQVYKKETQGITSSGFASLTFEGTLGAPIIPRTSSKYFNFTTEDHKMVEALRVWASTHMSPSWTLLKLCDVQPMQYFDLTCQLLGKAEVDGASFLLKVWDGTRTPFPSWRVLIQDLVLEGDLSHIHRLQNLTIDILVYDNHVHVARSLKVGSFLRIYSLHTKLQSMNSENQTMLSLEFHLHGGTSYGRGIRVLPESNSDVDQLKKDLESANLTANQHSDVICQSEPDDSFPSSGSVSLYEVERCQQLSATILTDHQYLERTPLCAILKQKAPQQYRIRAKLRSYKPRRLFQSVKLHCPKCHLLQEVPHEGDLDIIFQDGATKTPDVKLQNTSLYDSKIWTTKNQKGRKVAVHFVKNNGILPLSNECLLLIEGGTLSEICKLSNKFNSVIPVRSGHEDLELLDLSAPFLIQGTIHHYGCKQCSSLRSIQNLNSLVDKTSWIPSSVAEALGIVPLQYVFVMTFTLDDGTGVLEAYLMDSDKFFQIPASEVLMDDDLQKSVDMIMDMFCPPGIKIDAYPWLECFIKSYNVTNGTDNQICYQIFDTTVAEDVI
UniProt P25454, sequence (whole entry, unmodified, looked up): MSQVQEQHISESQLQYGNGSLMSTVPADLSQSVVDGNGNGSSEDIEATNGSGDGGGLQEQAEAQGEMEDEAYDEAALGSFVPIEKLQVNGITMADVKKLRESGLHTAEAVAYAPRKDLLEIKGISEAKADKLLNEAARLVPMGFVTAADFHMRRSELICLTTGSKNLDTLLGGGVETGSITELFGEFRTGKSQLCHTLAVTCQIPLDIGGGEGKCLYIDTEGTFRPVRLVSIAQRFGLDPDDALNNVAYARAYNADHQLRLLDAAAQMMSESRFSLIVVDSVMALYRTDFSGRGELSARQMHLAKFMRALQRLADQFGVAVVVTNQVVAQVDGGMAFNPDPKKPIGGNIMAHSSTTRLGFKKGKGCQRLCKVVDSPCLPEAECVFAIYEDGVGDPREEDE

For `AAAGAAAGAAAGAAAGAAAGAAAGAAAGAAAGAAAGAAAGAAAGAAAGAAAGAAAGAAAG (ssDNA)`, the Kd was 1770 ± 150 nM (CGAS 161-522 K394E (Homo sapiens, UniProt Q8N884); fluorescence anisotropy; single-stranded DNA).
With `CGCTTCAATGTTTGAATGTTTTAATTAATTACACAATTACAGAATTACATAATTACTCCGGCGGTATGAC (dsDNA)` the Kd was 710 ± 60 nM (YAP1 full length assumed; MITOMI; double-stranded DNA, one strand shown; not purified).
`TCCTGAAGGAGCGCCTATAAAAGGTCCTATCGTCGTCAAGTCAATCGGTCC (dsDNA; 5'-amino-C6 primer)` has a Kd of 2.37 ± 0.4 nM (SPT15/TOA1/TOA2/SUA7 1-240; 1-286; 1-122; 1-345; array; double-stranded DNA, one strand shown; TBP:TFIIA:TFIIB ternary complex).
`AAAUGAGGCGCUGCAUGUGGCAGUCUGCCUUUCUUU (structured RNA)` has a Kd of 674 ± 60 nM (MLLT3 1-140 K63E/K67E (Homo sapiens, UniProt P42568); fluorescence polarization; folded RNA).
`AAAAAAAAAAAA (dsDNA)` has a Kd of 2850 ± 361 nM (Fibroin-modulator-binding protein-1; ITC; double-stranded DNA, one strand shown).
For `DNA 1 AGCTAAAATTTGGACAGCTCTCATTACTAAATTAATCAATTCAATCGGTCC / DNA 2 GGACCGATTGACTTGATTAATTTAGTAATGAGAGCTGTCCAAATTTTAGCT (dsDNA; 5'-amino-C6 primer)`, the Kd was 2.06 ± 0.3 nM (SPT15/TOA1/TOA2/SUA7 1-240; 1-286; 1-122; 1-345; array; double-stranded DNA; TBP:TFIIA:TFIIB ternary complex).
The Kd of `DNA 1 TGGGTGGGTAGGGTGGGTAGGGGAGGAT / DNA 2 ATCCTCCCCTA (DNA; intramolecular parallel G4, 5' overhang, 11-bp duplex)` is reported as 3.7 ± 0.8 nM (REV1 330-833 F427L (Homo sapiens, UniProt Q9UBZ9); FP; folded DNA; KCl 100 mM).
With `AGAACAGAGTGTTCT (dsDNA)` the Kd was 210 nM (NR3C1 1-525 (Homo sapiens, UniProt P04150); fluorescence anisotropy; double-stranded DNA, one strand shown).
`GTATAAAAGTTCCTGAAGGGGGGGCGGGGTGGGGGTCAAGTCAATCGGTCC (dsDNA; 5'-amino-C6 primer)` gave a Kd of 2.06 ± 0.28 nM (SPT15/TOA1/TOA2/SUA7 1-240; 1-286; 1-122; 1-345; array; double-stranded DNA, one strand shown; TBP:TFIIA:TFIIB ternary complex).
For `TTGCATCCTTCACAACGACCACCTAGATAG (dsDNA; blunt)`, the Kd was 105 nM (T1, KU70/KU80 KU70 1-592; KU80 1-680 (Arabidopsis thaliana); PIFE stopped-flow; double-stranded DNA, one strand shown).
With `CTCAGGAATTCCCATAAAGTAATGTGGAGCTCAGTTCAAGTCAATCGGTCC (dsDNA; 5'-amino-C6 primer)` the Kd was 3.34 ± 0.62 nM (SPT15/TOA1/TOA2/SUA7 1-240; 1-286; 1-122; 1-345; array; double-stranded DNA, one strand shown; TBP:TFIIA:TFIIB ternary complex).
With `GGTTAGGGTTAG (ssDNA; 5'-phosphate)` the Kd was 0.19 nM (POT1 1-299 (Homo sapiens, UniProt Q9NUX5); EMSA; single-stranded DNA).
For `CGCAATTAGATAATTAGCCAATTAGCGAATTAGCTAATTAGGCAATTAGGGAATTCTCCGGCGGTATGAC (dsDNA)`, the Kd was 1600 ± 200 nM (YAP1 full length assumed; MITOMI; double-stranded DNA, one strand shown; not purified).
The Kd of `AATTAATTAATT (dsDNA)` is reported as 1930 ± 85.6 nM (Fibroin-modulator-binding protein-1; ITC; double-stranded DNA, one strand shown).
The Kd of `CTCAGGAATTCCTAGAAAGTAATGTGGAGCTCAGTTCAAGTCAATCGGTCC (dsDNA; 5'-amino-C6 primer)` is reported as 4.78 ± 0.62 nM (SPT15/TOA1/TOA2/SUA7 1-240; 1-286; 1-122; 1-345; array; double-stranded DNA, one strand shown; TBP:TFIIA:TFIIB ternary complex).
`TTTTTTTTTTTTTTTTTTTTTTTTTTTTTTTTTTTTTTTTTTTTTTTTTTTTTTTTTTTTTTTTTTTTTT (ssDNA)` gave a Kd of 690 ± 110 nM (RAD51 full length assumed Y112S/Y253L (Saccharomyces cerevisiae, UniProt P25454); fluorescence anisotropy; single-stranded DNA; apparent, Hill fit, together with: ATP).
`GACCGGAAGTGG (dsDNA)` gave a Kd of 136 ± 18 nM (ERF 22-140 (Homo sapiens, UniProt P50548); fluorescence anisotropy; double-stranded DNA, one strand shown; 50 nM DNA).
`CUCCCUCUCCCUAA (XNA; single strand, 2'-OMe, phosphorothioate backbone)` has a Kd of 166 ± 60 nM (MATR3 1-847 (Homo sapiens, UniProt P43243); fluorescence polarization; modified nucleic acid; apparent).
The Kd of `CTCTCGGGACGACGTCCAAGTAGTACGTTTAATTAGGATTTCCGAATTATTGGCATGCGTCGTCCC (DNA; stem-loop; internal amino group)` is reported as 1.4 nM (arginine vasopressin 20-28 (Homo sapiens, UniProt P01185); FET; folded DNA; apparent).
For `UAGAAGCGGAUUUAGCUCAGUUGGGAGAGCGCCAGACUGAAGAUCUGGAGGUCCUGUGUUCGAUCCACAGAAUUCGCA (tRNA (Saccharomyces cerevisiae))`, the Kd was 150 ± 20 nM (RNA-free ribonuclease P 1-192 (Aquifex aeolicus, UniProt O67035); fluorescence polarization; folded RNA; together with: CaCl2 20 mM).
For `CACCATCCACTAC / ATGTAGTTGTAGTGGATGGTGGTAC (dsDNA; primer-template)`, the Kd was 5.1 ± 0.4 nM (POLH 1-432 C227Y (Homo sapiens, UniProt Q9Y253); fluorescence polarization; together with: MgCl2 5 mM).
For `GTTGGTTGGTTG (dsDNA)`, the Kd was 7200 nM (Fibroin-modulator-binding protein-1; ITC; double-stranded DNA, one strand shown).
With `TTCTACGAGATCGTCATGAC (ssDNA)` the Kd was 140 nM (recA full length assumed E39K (Escherichia coli, UniProt P0A7G6); BLI; single-stranded DNA; together with: ATPgS).
For `TTTTTTTTTTTTTTTTTTTTTTTTTTTTTTTTTTTTTTTTTTTTTTTT (dsDNA)`, the Kd was 2100 ± 1500 nM (MGM101; fluorescence polarization; double-stranded DNA, one strand shown).
`CTTACGACGGGCGTAATGGTGCGGGTGGTTGGGGCGCGGTCGTAAG (DNA hairpin; 8-bp stem, 30-nt loop)` gave a Kd of 4.4 nM (F2 alpha-thrombin (Homo sapiens); BLI; folded DNA).
For `ATTTATATTATTTATTCATATTTATATTTA (ssDNA)`, the Kd was 3930 ± 417 nM (APOBEC3F full length assumed W126A (Homo sapiens, UniProt Q8IUX4); EMSA; single-stranded DNA).
The Kd of `GGCCGGCCGGCC (dsDNA)` is reported as 2210 ± 349 nM (Fibroin-modulator-binding protein-1; ITC; double-stranded DNA, one strand shown).
With `DNA 1 CACTGGCCGTCTTACGGTCGCTCTGCTCGACG / DNA 2 CGACCGTAAGACGGCCAGTG (dsDNA; 20 bp, 3' 12 nt overhang)` the Kd was 73.3 ± 7.9 nM (RECQL 63-592 K393A (Bos taurus, UniProt A0JN36); fluorescence anisotropy; double-stranded DNA; together with: Mg2+ 3 mM).
`TAAGACACGATGCGATAAAATCTGTTTGTAAAATTTATTAAGGGTACAAATTGCCCTAGC (dsDNA)` has a Kd of 22.8 ± 3.1 nM (CGAS 1-522 (Homo sapiens, UniProt Q8N884); fluorescence anisotropy; double-stranded DNA, one strand shown).
The Kd of `CTGCTGGAAACGCCGCGGTCGTAGTAAGACCGCGGCGTTTCCAGCAG (DNA; hairpin, 20 bp stem, 7 nt loop)` is reported as 236 ± 5 nM (EWSR1 1-656 (Homo sapiens, UniProt Q01844); EMSA; folded DNA).
With `GCGGGGCCCG (ssRNA)` the Kd was 1800 ± 400 nM (TARDBP 102-269 (Homo sapiens, UniProt Q13148); BLI; RNA).
`TGAATGAATGAA (dsDNA)` gave a Kd of 673 ± 31.6 nM (Fibroin-modulator-binding protein-1; ITC; double-stranded DNA, one strand shown).
For `AAAGAAAGAAAGAAAGAAAGAAAGAAAGAAAGAAAGAAAGAAAGAAAGAAAGAAAGAAAG (ssRNA)`, the Kd was 597 ± 377 nM (CGAS 161-522 (Homo sapiens, UniProt Q8N884); fluorescence anisotropy; RNA).
`AGTCAGTCAGTC (dsDNA)` gave a Kd of 6730 nM (Fibroin-modulator-binding protein-1; ITC; double-stranded DNA, one strand shown).
For `TTGTGCTACGGTCTCTCCACCCCCTGCTGCTGCTGTCAAGTCAATCGGTCC (dsDNA; 5'-amino-C6 primer)`, the Kd was 1.84 ± 0.67 nM (SPT15/TOA1/TOA2/SUA7 1-240; 1-286; 1-122; 1-345; array; double-stranded DNA, one strand shown; TBP:TFIIA:TFIIB ternary complex).
`CACACACACACA (dsDNA)` has a Kd of 3990 ± 560 nM (Fibroin-modulator-binding protein-1; ITC; double-stranded DNA, one strand shown).
`TTGATAAGAGGTCATTTTTGCGGATGGCTTAGAGCTTAATTGCTGAATCTGGTGCTGTAGCTCAACATGTTTTAAATATGCAA (ssDNA)` has a Kd of 360 ± 85 nM (MGM101; fluorescence polarization; single-stranded DNA).

Repeated from above:
With `GGTTAGGGTTAG (ssDNA; 5'-phosphate)` the Kd was 0.19 nM (POT1 1-299 (Homo sapiens, UniProt Q9NUX5); EMSA; single-stranded DNA).
The Kd of `CTGCTGGAAACGCCGCGGTCGTAGTAAGACCGCGGCGTTTCCAGCAG (DNA; hairpin, 20 bp stem, 7 nt loop)` is reported as 236 ± 5 nM (EWSR1 1-656 (Homo sapiens, UniProt Q01844); EMSA; folded DNA).
`GACCGGAAGTGG (dsDNA)` gave a Kd of 136 ± 18 nM (ERF 22-140 (Homo sapiens, UniProt P50548); fluorescence anisotropy; double-stranded DNA, one strand shown; 50 nM DNA).
For `AAAGAAAGAAAGAAAGAAAGAAAGAAAGAAAGAAAGAAAGAAAGAAAGAAAGAAAGAAAG (ssDNA)`, the Kd was 1770 ± 150 nM (CGAS 161-522 K394E (Homo sapiens, UniProt Q8N884); fluorescence anisotropy; single-stranded DNA).
With `AGAACAGAGTGTTCT (dsDNA)` the Kd was 210 nM (NR3C1 1-525 (Homo sapiens, UniProt P04150); fluorescence anisotropy; double-stranded DNA, one strand shown).
`CACACACACACA (dsDNA)` has a Kd of 3990 ± 560 nM (Fibroin-modulator-binding protein-1; ITC; double-stranded DNA, one strand shown).
